Results from different studies.
Values joined by “and” are separate records of one study, mostly repeats; a detail may differ. ± marks the error that the study gave.
Sequence of UniProt Q01959 (whole entry, unmodified, looked up): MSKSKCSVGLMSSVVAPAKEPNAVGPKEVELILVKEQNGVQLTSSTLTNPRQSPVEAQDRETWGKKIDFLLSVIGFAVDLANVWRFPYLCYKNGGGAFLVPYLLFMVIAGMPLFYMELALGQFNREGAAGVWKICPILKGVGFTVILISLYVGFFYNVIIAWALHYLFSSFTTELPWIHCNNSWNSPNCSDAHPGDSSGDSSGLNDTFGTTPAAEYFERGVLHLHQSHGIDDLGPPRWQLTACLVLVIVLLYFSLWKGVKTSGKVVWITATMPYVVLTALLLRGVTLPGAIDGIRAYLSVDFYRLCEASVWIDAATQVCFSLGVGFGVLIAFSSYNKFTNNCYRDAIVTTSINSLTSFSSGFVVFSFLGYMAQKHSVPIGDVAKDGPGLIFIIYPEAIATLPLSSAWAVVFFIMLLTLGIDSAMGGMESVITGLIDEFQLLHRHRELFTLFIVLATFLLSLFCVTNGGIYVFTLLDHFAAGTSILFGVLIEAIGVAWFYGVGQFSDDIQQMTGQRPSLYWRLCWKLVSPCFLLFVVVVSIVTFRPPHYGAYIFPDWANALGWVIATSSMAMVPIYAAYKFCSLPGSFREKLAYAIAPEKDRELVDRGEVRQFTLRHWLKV
Sequence of UniProt P51956 (whole entry, looked up): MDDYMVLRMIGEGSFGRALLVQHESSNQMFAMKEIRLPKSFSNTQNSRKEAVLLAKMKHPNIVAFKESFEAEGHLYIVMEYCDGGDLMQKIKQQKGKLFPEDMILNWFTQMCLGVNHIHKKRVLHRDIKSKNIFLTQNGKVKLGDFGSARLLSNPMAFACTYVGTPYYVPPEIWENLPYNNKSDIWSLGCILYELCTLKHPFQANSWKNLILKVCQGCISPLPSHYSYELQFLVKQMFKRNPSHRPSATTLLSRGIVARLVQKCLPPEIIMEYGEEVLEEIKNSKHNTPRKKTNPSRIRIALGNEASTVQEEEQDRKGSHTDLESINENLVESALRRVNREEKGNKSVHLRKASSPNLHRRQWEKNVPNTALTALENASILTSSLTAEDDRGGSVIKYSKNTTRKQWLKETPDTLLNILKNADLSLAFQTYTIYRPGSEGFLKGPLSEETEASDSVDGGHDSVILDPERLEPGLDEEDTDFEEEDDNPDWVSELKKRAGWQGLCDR
Sequence of UniProt P48039 (whole entry, looked up): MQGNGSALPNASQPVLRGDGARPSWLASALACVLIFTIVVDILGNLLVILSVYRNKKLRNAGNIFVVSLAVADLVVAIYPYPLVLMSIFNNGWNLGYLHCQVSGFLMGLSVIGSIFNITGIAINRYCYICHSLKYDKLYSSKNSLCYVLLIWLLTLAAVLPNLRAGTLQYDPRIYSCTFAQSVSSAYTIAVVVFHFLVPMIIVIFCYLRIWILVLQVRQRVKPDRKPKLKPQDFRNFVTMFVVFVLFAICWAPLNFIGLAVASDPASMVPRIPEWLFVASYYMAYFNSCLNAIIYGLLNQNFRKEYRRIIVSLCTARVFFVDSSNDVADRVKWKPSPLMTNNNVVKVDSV
Sequence of UniProt P07949 (whole entry, unmodified, looked up): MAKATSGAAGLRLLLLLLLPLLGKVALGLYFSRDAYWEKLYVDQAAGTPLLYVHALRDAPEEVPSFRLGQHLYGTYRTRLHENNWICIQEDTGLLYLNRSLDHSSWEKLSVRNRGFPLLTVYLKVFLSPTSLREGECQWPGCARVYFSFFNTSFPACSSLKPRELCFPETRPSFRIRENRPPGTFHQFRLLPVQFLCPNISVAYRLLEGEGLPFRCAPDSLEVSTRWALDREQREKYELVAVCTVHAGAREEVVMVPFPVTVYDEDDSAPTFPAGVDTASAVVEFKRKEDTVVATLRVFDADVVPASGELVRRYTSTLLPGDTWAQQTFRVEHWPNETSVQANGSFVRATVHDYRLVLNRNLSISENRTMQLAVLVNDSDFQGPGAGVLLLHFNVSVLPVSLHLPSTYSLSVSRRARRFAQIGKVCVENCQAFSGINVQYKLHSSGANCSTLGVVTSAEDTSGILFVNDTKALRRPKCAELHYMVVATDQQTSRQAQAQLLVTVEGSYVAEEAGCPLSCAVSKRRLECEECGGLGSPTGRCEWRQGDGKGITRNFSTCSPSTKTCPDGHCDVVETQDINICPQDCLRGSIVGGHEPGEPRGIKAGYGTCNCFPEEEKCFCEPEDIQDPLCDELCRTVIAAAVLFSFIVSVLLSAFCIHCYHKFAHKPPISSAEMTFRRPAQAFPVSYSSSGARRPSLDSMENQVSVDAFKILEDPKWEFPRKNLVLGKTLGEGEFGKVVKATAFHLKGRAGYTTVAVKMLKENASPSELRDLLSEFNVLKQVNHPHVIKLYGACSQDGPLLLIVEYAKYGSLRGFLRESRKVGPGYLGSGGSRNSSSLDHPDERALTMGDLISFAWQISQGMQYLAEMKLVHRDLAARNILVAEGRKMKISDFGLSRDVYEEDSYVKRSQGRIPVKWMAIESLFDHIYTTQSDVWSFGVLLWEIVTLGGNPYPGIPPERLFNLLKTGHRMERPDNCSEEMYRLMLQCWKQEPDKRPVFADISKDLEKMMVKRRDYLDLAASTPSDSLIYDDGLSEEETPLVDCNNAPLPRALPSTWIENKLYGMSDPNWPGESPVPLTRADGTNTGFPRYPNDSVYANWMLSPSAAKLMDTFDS
Sequence of UniProt Q9UBS0 (whole entry, looked up): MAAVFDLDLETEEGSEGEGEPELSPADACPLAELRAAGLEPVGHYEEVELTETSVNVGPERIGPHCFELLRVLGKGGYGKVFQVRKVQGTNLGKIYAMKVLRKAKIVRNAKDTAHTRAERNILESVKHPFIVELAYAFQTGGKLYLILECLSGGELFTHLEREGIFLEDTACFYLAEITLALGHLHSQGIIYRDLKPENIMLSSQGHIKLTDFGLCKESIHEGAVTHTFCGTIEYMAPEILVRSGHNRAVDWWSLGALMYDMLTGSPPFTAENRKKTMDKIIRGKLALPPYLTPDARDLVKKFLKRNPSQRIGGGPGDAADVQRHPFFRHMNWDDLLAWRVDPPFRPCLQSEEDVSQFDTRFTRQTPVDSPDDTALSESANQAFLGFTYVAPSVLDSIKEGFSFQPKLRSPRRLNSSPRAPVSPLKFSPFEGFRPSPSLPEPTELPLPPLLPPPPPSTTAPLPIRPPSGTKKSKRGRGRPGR
Sequence of UniProt P21554 (whole entry, looked up): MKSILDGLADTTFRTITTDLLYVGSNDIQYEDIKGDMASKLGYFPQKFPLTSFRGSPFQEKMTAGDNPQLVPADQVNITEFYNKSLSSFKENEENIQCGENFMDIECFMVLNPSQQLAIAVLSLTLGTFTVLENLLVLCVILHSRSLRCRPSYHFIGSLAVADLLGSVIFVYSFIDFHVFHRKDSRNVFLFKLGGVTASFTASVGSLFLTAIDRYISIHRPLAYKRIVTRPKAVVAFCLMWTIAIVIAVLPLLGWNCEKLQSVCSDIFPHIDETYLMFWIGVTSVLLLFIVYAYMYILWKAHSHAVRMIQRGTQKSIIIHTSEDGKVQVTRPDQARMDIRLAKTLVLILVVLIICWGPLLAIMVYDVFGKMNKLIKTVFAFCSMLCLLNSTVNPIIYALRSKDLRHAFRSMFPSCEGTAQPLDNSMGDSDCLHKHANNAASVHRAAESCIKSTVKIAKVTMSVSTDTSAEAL
Sequence of UniProt P48736 (whole entry, looked up): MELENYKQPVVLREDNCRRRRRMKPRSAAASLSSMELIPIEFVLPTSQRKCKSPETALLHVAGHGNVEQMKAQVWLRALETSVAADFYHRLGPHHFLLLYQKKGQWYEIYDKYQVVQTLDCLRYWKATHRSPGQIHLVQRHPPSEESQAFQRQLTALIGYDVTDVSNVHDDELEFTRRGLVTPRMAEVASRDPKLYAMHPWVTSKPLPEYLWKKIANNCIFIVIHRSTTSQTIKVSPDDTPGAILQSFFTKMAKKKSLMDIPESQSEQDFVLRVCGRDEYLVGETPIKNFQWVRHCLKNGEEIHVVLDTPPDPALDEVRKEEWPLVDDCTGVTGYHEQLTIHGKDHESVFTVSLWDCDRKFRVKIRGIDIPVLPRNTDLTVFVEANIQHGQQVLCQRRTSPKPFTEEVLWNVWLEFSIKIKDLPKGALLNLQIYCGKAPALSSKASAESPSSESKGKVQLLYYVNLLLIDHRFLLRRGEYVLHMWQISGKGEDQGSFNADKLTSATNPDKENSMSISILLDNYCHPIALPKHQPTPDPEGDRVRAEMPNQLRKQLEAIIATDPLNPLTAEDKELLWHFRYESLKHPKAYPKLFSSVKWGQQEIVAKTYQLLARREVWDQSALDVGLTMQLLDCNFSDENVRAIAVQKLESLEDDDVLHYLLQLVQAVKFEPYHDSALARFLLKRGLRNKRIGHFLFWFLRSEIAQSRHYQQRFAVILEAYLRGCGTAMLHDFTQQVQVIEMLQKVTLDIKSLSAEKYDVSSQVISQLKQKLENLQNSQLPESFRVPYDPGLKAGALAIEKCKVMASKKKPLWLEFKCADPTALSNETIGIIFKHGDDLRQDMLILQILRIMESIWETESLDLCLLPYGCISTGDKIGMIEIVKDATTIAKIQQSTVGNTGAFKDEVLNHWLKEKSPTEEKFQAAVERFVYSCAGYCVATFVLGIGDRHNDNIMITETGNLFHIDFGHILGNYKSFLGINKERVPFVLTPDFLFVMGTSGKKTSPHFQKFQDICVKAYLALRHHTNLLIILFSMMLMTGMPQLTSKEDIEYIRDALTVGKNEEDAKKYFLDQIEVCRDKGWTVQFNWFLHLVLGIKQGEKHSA

Cc1ccc(OCCN(C)C)cc1C(=O)N[C@H](C)c1cc(-c2cnn(C(F)F)c2)nc2ccccc12 — viability (Vero E6; 31.25 µM): 15.8% and 12.1%
Nc1ccc(/C=C/C(=O)N2CCc3c(oc4c(-c5ccc(F)cc5)cc(-c5ccc(C(=O)N6CCC(F)(F)CC6)cn5)cc34)C2)cn1 — remaining binding (PIK3CG (Homo sapiens, UniProt P48736); binding, competition with immobilised ligand; 1 µM): 90%
CN(C)[C@H]1C[C@@]23CC[C@@]4(O2)C(=CC[C@]2(C)[C@@H](c5ccc6ccncc6c5)CC[C@H]24)C=C3[C@@H](O)[C@@H]1O — inhibition (STK38 (Homo sapiens, UniProt Q15208); ATP probe labelling, inhibitor, KiNativ profiling; 0.1 µM): -0.7%
CS(C)(=O)=Nc1ccc(-c2ccc(-c3nc4cc(O[C@@H]5CO[C@H]6[C@@H]5OC[C@H]6O)[nH]c4cc3F)cc2)cc1 — inhibition (RET (Homo sapiens, UniProt P07949, V804L); enzyme activity, inhibitor; 10 µM): -22%
Cc1sc2c(c1C)C(c1ccc(Cl)cc1)=NC(CC(=O)OC(C)(C)C)c1nnc(C)n1-2 (stereo not shown) — inhibition (MTNR1A (Homo sapiens, UniProt P48039); ligand displacement, radioligand; 1 µM): 29%
CCOCC1C(c2ccc(Cl)c(Cl)c2)CC2CCC1N2C (stereo not shown) — remaining activity (SLC6A3 (Homo sapiens, UniProt Q01959, S422A); dopamine uptake; 0.003 µM, 0.03333 h, S422A mutant, with: [3H]dopamine; baseline: no inhibitor): 19.9%
O=C1NC(=O)c2c1c1cc(F)c[n+]3c1c1c2c2cc(O)ccc2[n]1[Ru-4]312([N]=C=S)[S+]3CC[S+]1CC[S+]2CC3 (stereo not shown) — remaining activity (NEK3 (Homo sapiens, UniProt P51956); enzyme activity; 100 nM, human enzyme, with: 10 µM ATP; baseline: untreated): 95%
CC(C)(C)C(=O)OCOP(=O)(OCOC(=O)C(C)(C)C)C1CCCN(O)C1=O (stereo not shown) — CC50 (M14): 63.2 µM
O=C1NC2(CC2)COc2ncc(F)cc2[C@H]2COCCN2c2ccn3ncc1c3n2 — organ-to-body weight ratio (Sprague-Dawley rat, female, uterus; oral, 2.5 mg/kg/day, 4 weeks, end of treatment): 0.131 ± 0.027%
CC(C)CC(C(=O)N1CC2(CC1C#N)C(=O)Nc1ccccc12)N(C)C(=O)c1cc2c(F)cc(F)c(F)c2[nH]1 (stereo not shown) — remaining activity (Replicase polyprotein 1ab, main protease (rep, Human coronavirus HKU1, UniProt P0C6X2); enzyme activity; 0.01001 µM): 24.1%
Cc1ccc2c(C(C[N+](=O)[O-])c3cccs3)c(-c3ccccc3)[nH]c2c1 (stereo not shown) — Emax (Cannabinoid receptor 1, with Gi1 (CNR1, Homo sapiens, UniProt P21554); Gi1 dissociation, agonist, BRET): 100 ± 9.13%
CC(C)[C@H]1NC(=O)C[C@H]2/C=C/CCSSC[C@@H](NC1=O)C(=O)N[C@H](Cc1cccc3ccccc13)C(=O)NCC(=O)O2 — inhibition (RPS6KB2 (Homo sapiens, UniProt Q9UBS0); enzyme activity, inhibitor; 10 µM): 4.1%
COc1ccccc1-c1n[nH]c2nc(NC3CCN(C(=O)Cc4ccc(F)cc4F)CC3)ncc12 — relative abundance (bead binding, competition bead pull-down, measured: LINJ.33.2520; Leishmania donovani axenic amastigote extract; 10 µM; baseline: vehicle): 1.01

Some of these lines once more:
CC(C)CC(C(=O)N1CC2(CC1C#N)C(=O)Nc1ccccc12)N(C)C(=O)c1cc2c(F)cc(F)c(F)c2[nH]1 (stereo not shown) — remaining activity (Replicase polyprotein 1ab, main protease (rep, Human coronavirus HKU1, UniProt P0C6X2); enzyme activity; 0.01001 µM): 24.1%
O=C1NC(=O)c2c1c1cc(F)c[n+]3c1c1c2c2cc(O)ccc2[n]1[Ru-4]312([N]=C=S)[S+]3CC[S+]1CC[S+]2CC3 (stereo not shown) — remaining activity (NEK3 (Homo sapiens, UniProt P51956); enzyme activity; 100 nM, human enzyme, with: 10 µM ATP; baseline: untreated): 95%
